Published values of several laboratories.
Every numbered part comes from another study and shows a few of its results, in no order. Changes are numbered by the printed parent chain.

Study 1
Target: CCNB2, cyclin fold, Cln2 fusion (human)
Method: yeast growth competition, sequencing
Matrix: yeast
Notes: strong parent motif
Relative to: not given
Direction: higher = stronger binding
Starting sequence: BRCA2 docking peptide (human); PSIKRNLLNEFDR
Under “normalised enrichment score”, `R5Y` is recorded as 0.266.
Under “normalised enrichment score”, `L7E` is recorded as 0.0729.
`R5T`: “normalised enrichment score” 0.864.
Under “normalised enrichment score”, `L8F` is recorded as 3.83.
For `D12I`, “normalised enrichment score” read 2.09.
`N9T` — result for “normalised enrichment score”: 3.51.
`L8H`: “normalised enrichment score” 1.03.

Study 2
Target: Prothrombin, mature alpha-thrombin (F2, Homo sapiens, UniProt P00734)
Method: aptamer microarray, sandwich
Molecule type: DNA with 2'F-ANA
Matrix: in vitro
Tested at: 200 nM
Notes: whole 15-mer aptamer, many near background
Together with: Cy3 exosite-II aptamer, 400 nM
Direction: higher = stronger binding
Sequence: GGTTGGTGTGGTTGG
`2'F-ANA at 2 4 8 9 10 12 13 15`: “mean fluorescence intensity” 100 a.u.
`2'F-ANA at 2 3` — result for “mean fluorescence intensity”: 966 a.u.
`2'F-ANA at 1 3 7 8 9 10 13` — result for “mean fluorescence intensity”: 83.4 a.u.
`2'F-ANA at 1 6`: “mean fluorescence intensity” 164 a.u.
Under “mean fluorescence intensity”, `2'F-ANA at 2 5 8 9 10 11 12 13 14` is recorded as 49.2 a.u.
For `2'F-ANA at 1 4 7 9 10 11 14`, “mean fluorescence intensity” read 89.4 a.u.
Under “mean fluorescence intensity”, `2'F-ANA at 1 2 5 7 10 11 15` is recorded as 44.4 a.u.
Under “mean fluorescence intensity”, `2'F-ANA at 2 4 5 10 11 14` is recorded as 45.2 a.u.
`2'F-ANA at 1 3 5 6 9 10 11 12 13 14 15`: “mean fluorescence intensity” 47.2 a.u.

Study 3
Target: Histone acetyltransferase KAT6A, both winged helices, GST fusion (KAT6A, Homo sapiens, UniProt Q92794, residues 1-181)
Method: protein binding microarray
Molecule type: double-stranded DNA, one strand shown
Matrix: in vitro
Tested at: not given
Notes: 8-mer, flanks averaged, mean of 2 arrays, mostly near background
Relative to: not given
Direction: higher = stronger binding
Residues (chain): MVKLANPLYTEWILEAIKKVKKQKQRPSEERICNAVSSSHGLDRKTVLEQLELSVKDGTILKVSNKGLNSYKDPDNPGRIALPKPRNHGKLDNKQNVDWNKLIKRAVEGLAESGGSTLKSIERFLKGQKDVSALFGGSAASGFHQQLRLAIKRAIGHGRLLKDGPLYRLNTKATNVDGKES
With `CAGCTTTA` the E-score was -0.248.
The E-score of `AGATACGA` is reported as -0.0159.
`GCGAACCC` gave an E-score of 0.177.
For `ATAACTAA`, the E-score was -0.0139.
For `ATCAGTTC`, the E-score was -0.0424.
The E-score of `ACCCGTCT` is reported as 0.158.
`CTAAGCGC` has an E-score of 0.295.
`ACTGTAAG` has an E-score of -0.0213.
With `CCGTGGCC` the E-score was 0.194.
`GAATTACA` has an E-score of -0.0291.
With `CGGAGGTC` the E-score was 0.0316.
With `CACTTCTG` the E-score was -0.0733.
The E-score of `TGACCACA` is reported as -0.188.

Further values, each from its own experiment
With `PhoQ, residues 284 288 289 292 302 303 TGYLSA` the fold induction was 0.78 (PhoP, residues 12 14 15 18 19 LHATL (Escherichia coli, UniProt P23836); Sort-seq, refers to: YFP reporter; E. coli; PhoQ-PhoP variant library, together with: 10 µM Mg2+; relative to: high Mg2+ state, higher = stronger signaling).

Some of these lines once more (study 1):
Under “normalised enrichment score”, `L8F` is recorded as 3.83.
For `D12I`, “normalised enrichment score” read 2.09.
`N9T` — result for “normalised enrichment score”: 3.51.
